Assay results of several laboratories.
Numbered parts are unrelated; each lists some results of a single study. Several values in a cell are separate wells, animals, samples, runs or records.
Chain of UniProt O94804 (whole entry, looked up): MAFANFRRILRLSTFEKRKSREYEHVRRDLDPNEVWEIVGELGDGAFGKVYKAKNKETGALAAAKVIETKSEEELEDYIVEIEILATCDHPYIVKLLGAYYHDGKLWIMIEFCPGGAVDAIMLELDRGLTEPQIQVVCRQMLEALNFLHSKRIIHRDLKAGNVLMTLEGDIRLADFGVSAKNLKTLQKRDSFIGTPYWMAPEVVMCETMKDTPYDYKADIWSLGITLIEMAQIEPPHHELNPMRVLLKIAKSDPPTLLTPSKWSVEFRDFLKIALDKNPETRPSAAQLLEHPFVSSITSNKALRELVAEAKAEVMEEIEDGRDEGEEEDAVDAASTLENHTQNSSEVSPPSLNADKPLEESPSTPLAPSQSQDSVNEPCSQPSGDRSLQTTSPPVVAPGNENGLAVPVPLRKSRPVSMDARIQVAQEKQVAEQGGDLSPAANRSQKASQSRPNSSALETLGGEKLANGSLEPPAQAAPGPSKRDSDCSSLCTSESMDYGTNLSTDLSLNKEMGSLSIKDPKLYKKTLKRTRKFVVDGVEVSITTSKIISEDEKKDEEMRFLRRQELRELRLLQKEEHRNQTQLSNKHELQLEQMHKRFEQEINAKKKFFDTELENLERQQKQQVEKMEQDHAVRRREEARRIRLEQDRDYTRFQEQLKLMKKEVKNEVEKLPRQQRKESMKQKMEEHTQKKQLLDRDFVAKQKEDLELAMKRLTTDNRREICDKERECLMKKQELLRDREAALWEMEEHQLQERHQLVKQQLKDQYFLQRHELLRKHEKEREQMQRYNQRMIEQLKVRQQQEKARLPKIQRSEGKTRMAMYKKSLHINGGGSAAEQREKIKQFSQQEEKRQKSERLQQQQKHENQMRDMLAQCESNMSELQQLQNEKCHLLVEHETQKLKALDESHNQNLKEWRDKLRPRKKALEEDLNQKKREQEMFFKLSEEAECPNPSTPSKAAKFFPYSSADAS
Chain of UniProt O14920 (whole entry, looked up): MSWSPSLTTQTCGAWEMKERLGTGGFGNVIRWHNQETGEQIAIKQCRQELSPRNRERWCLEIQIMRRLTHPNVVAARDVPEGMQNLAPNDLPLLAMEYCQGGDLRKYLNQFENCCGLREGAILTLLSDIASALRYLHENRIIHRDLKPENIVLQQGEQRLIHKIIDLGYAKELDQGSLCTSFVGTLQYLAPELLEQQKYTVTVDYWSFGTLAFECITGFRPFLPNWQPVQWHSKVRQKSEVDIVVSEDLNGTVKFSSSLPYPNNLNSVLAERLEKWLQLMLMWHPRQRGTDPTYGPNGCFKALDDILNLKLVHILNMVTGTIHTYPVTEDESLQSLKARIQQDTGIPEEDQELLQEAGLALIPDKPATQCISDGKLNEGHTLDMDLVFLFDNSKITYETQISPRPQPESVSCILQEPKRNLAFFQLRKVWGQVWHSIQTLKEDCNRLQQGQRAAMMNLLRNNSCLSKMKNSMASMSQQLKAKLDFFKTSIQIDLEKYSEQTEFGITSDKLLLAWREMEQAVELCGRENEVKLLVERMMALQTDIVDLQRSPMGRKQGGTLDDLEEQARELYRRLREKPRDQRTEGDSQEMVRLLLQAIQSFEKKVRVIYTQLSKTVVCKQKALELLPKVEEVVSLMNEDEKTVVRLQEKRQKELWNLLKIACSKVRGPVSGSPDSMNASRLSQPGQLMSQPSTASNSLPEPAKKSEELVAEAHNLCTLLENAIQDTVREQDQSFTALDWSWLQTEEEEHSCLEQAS
Chain of UniProt Q14164 (whole entry, looked up): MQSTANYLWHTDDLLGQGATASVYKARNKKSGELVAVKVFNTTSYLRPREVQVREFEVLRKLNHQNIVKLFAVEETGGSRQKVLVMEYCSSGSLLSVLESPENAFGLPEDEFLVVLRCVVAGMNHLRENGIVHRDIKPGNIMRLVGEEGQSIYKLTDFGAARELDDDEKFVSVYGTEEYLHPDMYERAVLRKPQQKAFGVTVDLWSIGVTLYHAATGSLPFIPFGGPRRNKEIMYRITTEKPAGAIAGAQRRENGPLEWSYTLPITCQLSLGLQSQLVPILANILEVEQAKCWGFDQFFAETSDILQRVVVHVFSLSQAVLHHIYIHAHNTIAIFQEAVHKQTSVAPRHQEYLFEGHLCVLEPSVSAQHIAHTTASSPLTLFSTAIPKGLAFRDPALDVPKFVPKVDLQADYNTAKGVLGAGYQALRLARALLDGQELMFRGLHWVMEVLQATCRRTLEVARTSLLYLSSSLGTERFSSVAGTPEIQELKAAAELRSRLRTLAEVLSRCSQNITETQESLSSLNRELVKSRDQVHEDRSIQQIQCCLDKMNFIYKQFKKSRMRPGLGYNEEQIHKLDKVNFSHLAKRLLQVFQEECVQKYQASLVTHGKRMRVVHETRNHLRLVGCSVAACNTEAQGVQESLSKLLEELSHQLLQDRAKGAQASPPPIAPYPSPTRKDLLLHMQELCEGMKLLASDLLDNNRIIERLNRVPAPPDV
Chain of UniProt O75747 (whole entry, looked up): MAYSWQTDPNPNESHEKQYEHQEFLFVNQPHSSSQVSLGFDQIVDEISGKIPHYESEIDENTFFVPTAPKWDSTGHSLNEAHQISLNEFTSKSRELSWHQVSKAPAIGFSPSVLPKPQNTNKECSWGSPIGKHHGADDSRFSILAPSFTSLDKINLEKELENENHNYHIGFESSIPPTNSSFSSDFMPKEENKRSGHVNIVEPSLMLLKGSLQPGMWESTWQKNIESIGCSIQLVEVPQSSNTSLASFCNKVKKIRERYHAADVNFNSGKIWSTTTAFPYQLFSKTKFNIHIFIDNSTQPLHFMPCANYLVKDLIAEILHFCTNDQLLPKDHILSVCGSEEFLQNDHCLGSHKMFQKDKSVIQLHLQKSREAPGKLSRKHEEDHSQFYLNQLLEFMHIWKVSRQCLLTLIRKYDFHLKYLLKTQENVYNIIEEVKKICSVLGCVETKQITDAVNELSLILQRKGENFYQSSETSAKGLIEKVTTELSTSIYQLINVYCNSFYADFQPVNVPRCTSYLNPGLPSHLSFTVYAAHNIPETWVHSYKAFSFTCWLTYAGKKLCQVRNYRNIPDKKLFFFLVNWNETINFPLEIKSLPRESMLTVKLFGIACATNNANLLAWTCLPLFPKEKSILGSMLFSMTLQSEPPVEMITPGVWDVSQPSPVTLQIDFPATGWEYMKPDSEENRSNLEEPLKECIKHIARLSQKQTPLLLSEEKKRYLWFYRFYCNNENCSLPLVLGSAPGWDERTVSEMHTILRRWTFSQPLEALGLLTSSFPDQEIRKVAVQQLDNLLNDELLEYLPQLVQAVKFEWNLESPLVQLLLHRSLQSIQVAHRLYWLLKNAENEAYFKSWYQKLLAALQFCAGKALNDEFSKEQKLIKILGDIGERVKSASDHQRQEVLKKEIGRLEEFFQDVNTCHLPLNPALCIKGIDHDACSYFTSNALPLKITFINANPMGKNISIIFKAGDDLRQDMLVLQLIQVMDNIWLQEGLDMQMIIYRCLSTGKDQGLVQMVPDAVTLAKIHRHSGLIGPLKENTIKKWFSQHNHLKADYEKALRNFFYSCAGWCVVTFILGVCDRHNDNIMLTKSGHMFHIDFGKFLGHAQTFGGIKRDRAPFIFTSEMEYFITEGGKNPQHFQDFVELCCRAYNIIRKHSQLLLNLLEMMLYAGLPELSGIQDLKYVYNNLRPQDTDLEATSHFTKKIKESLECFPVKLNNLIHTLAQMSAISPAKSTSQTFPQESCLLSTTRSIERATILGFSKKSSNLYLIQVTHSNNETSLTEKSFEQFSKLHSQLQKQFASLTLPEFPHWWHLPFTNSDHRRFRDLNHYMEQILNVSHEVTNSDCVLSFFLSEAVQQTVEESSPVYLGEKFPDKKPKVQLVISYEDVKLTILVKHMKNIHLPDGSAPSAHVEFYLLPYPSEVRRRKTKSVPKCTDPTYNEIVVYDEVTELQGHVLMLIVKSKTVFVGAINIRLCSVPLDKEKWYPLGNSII
Chain of UniProt P51955 (whole entry, looked up): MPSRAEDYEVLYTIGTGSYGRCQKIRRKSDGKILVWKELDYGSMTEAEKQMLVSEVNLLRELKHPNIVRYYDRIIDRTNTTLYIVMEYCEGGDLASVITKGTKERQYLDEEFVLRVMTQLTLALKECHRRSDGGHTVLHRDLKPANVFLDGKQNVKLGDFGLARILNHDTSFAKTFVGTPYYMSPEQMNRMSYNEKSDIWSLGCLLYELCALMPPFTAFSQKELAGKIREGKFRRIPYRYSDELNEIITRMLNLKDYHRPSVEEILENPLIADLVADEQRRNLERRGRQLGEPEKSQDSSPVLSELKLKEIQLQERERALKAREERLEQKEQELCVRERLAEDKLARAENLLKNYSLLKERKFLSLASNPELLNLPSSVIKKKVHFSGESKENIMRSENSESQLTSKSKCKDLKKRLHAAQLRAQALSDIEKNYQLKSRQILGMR
Chain of UniProt P45983 (whole entry, looked up): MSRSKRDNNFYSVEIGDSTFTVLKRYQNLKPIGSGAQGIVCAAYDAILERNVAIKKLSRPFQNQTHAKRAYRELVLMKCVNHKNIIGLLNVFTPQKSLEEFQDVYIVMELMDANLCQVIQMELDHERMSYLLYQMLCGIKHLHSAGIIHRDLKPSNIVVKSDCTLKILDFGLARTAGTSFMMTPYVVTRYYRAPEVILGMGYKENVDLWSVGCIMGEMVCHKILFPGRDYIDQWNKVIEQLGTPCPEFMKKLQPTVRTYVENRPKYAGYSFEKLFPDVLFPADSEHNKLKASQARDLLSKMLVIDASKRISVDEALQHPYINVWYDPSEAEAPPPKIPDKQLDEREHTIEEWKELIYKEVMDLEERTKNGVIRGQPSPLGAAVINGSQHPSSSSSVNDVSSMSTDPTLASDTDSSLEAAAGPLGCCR

Series 1 — cell line: A-375; tested at: 100 µM; time: 18 h
`C[n+]1ccccc1/C=N/O` has a viability of 100%.
The viability of `CN(C)CCCN1c2ccccc2Sc2ccc(Cl)cc21` is reported as 8.27%.
`O=C(Oc1ccccc1C(=O)O)c1ccccc1O` has a viability of 83.7%.
`CCNC(=O)[C@@H]1CCCN1C(=O)[C@H](CCCNC(=N)N)NC(=O)[C@H](CC(C)C)NC(=O)[C@@H](C)NC(=O)[C@H](Cc1ccc(O)cc1)NC(=O)[C@H](CO)NC(=O)[C@H](Cc1c[nH]c2ccccc12)NC(=O)[C@H](Cc1c[nH]cn1)NC(=O)[C@@H]1CCC(=O)N1` gave a viability of 89.7%.
`O=c1cc[nH]c(=S)[nH]1` has a viability of 103%.
For `COc1ccc(C(C)=O)c(O)c1`, the viability was 102%.
`N#Cc1cc(-c2n[nH]c(-c3ccncc3)n2)ccn1` gave a viability of 107%.
With `COc1cc2nccc(Oc3ccc(NC(=O)C4(C(=O)Nc5ccc(F)cc5)CC4)cc3)c2cc1OC` the viability was 49.3% and 51.9%.
For `COc1cc2nc(N3CCN(C(=O)C4COc5ccccc5O4)CC3)nc(N)c2cc1OC` (stereo not shown), the viability was 8.37%.
With `C[C@H]1[C@@H](O)O[C@@H]2O[C@@]3(C)CC[C@H]4[C@H](C)CC[C@@H]1[C@@]24OO3` the viability was 22%.
`CC(C)(O/N=C(\C(=O)N[C@@H]1C(=O)N2C(C(=O)[O-])=C(C[n+]3ccccc3)CS[C@H]12)c1csc(N)n1)C(=O)O` has a viability of 101%.
For `COc1ccc(C[C@@H]2c3cc(OC)c(OC)cc3CC[N@+]2(C)CCC(=O)OCCCCCOC(=O)CC[N@@+]2(C)CCc3cc(OC)c(OC)cc3[C@H]2Cc2ccc(OC)c(OC)c2)cc1OC`, the viability was 77.4%.
With `C=CCc1cc(OC)c(O)c(C(=O)NCCO)c1` the viability was 97.8%.
`COc1cc2nc(N3CCN(C(=O)c4ccco4)CC3)nc(N)c2cc1OC` has a viability of 9.99%.
With `N=C(N)c1ccc(/N=N/Nc2ccc(C(=N)N)cc2)cc1` the viability was 46%.

Series 2 — method: competition with immobilised ligand; tested at: 0.1 µM
Compound: CC(C)CC(=O)N1CCc2nc(-c3ccc(Br)cc3)nc(N(C)Cc3ccccc3)c2C1
For Phosphatidylinositol 3-kinase C2 domain-containing subunit gamma (PIK3C2G, Homo sapiens, UniProt O75747); cell-free assay: remaining binding read 100%.
The remaining binding was 100% (Mitogen-activated protein kinase 8 (MAPK8, Homo sapiens, UniProt P45983); cell-free assay).
The remaining binding was 100% (Homeodomain-interacting protein kinase 2 (HIPK2, Homo sapiens, UniProt Q9H2X6); cell-free assay).
Tyrosine-protein kinase ABL1, non-phosphorylated (ABL1, Homo sapiens, UniProt P00519, F317I); binding — remaining binding: 100%.
The remaining binding was 78% (Mitogen-activated protein kinase kinase kinase 7 (MAP3K7, Homo sapiens, UniProt O43318); cell-free assay).
The remaining binding was 100% (Ribosomal protein S6 kinase alpha-6, C-terminal kinase domain (RPS6KA6, Homo sapiens, UniProt Q9UK32); cell-free assay).
The remaining binding was 94% (Serine/threonine-protein kinase LATS2 (LATS2, Homo sapiens, UniProt Q9NRM7); cell-free assay).
The remaining binding was 100% (Mitogen-activated protein kinase 14 (MAPK14, Homo sapiens, UniProt Q16539); cell-free assay).
Mitogen-activated protein kinase kinase kinase 19 (MAP3K19, Homo sapiens, UniProt Q56UN5); cell-free assay — remaining binding: 100%.
Serine/threonine-protein kinase DCLK2 (DCLK2, Homo sapiens, UniProt Q8N568); cell-free assay — remaining binding: 100%.
For Dual specificity mitogen-activated protein kinase kinase 5 (MAP2K5, Homo sapiens, UniProt Q13163); cell-free assay: remaining binding read 98%.
Tyrosine-protein kinase ZAP-70 (ZAP70, Homo sapiens, UniProt P43403); cell-free assay — remaining binding: 91%.
The remaining binding was 100% (Serine/threonine-protein kinase Sgk3 (SGK3, Homo sapiens, UniProt Q96BR1); cell-free assay).
It gave 99% for remaining binding (SRSF protein kinase 1 (SRPK1, Homo sapiens, UniProt Q96SB4); cell-free assay).
It gave 100% for remaining binding (Serine/threonine-protein kinase B-raf (BRAF, Homo sapiens, UniProt P15056); cell-free assay).

Series 3 — Compound: CCN1/C(=C/C(C)=O)Sc2ccc(OC)cc21; effect on: enzyme activity; action: inhibitor; tested at: 0.5 µM; reference: control
It gave 93.5% for remaining activity (Serine/threonine-protein kinase OSR1 (OXSR1, Homo sapiens, UniProt O95747)).
G protein-coupled receptor kinase 3 (GRK3, Homo sapiens, UniProt P35626) — remaining activity: 82.9%.
Serine/threonine-protein kinase 10 (STK10, Homo sapiens, UniProt O94804) — remaining activity: 96.8%.
It gave 95.5% for remaining activity (Calcium/calmodulin-dependent protein kinase kinase 2 (CAMKK2, Homo sapiens, UniProt Q96RR4)).
The remaining activity was 98% (cAMP-dependent protein kinase catalytic subunit alpha (PRKACA, Homo sapiens, UniProt P17612)).
It gave 94.2% for remaining activity (TGF-beta receptor type-1 (TGFBR1, Homo sapiens, UniProt P36897)).
For Protein kinase C alpha type (PRKCA, Homo sapiens, UniProt P17252): remaining activity read 68.7%.
Mitogen-activated protein kinase kinase kinase 3 (MAP3K3, Homo sapiens, UniProt Q99759) — remaining activity: 114%.
The remaining activity was 95.9% (STE20/SPS1-related proline-alanine-rich protein kinase (STK39, Homo sapiens, UniProt Q9UEW8)).
It gave 87% for remaining activity (cGMP-dependent protein kinase 1, isoform beta (PRKG1, Homo sapiens, UniProt Q13976)).
The remaining activity was 92.2% (Calcium/calmodulin-dependent protein kinase type II subunit delta (CAMK2D, Homo sapiens, UniProt Q13557)).
The remaining activity was 104% (Serine/threonine-protein kinase Chk2 (CHEK2, Homo sapiens, UniProt O96017)).
The remaining activity was 92.1% (Cyclin-dependent kinase 4, with cyclin D1 (CDK4, Homo sapiens, UniProt P11802)).
For Cyclin-dependent kinase 5, with p25 (CDK5, Homo sapiens, UniProt Q00535): remaining activity read 87.9%.
The remaining activity was 86.6% (Serine/threonine-protein kinase STK11 (STK11, Homo sapiens, UniProt Q15831)).
Death-associated protein kinase 2 (DAPK2, Homo sapiens, UniProt Q9UIK4) — remaining activity: 90.3%.
It gave 97.6% for remaining activity (Serine/threonine-protein kinase Nek2 (NEK2, Homo sapiens, UniProt P51955)).
For Mitogen-activated protein kinase 9 (MAPK9, Homo sapiens, UniProt P45984): remaining activity read 101%.
For Inhibitor of nuclear factor kappa-B kinase subunit beta (IKBKB, Homo sapiens, UniProt O14920): remaining activity read 102%.
The remaining activity was 99% (Inhibitor of nuclear factor kappa-B kinase subunit epsilon (IKBKE, Homo sapiens, UniProt Q14164)).
Death-associated protein kinase 1 (DAPK1, Homo sapiens, UniProt P53355) — remaining activity: 109%.
It gave 99.4% for remaining activity (Protein kinase C beta type, isoform beta-I (PRKCB, Homo sapiens, UniProt P05771)).
Tyrosine-protein kinase Lyn, isoform B (LYN, Homo sapiens, UniProt P07948) — remaining activity: 94.4%.
For TGF-beta receptor type-2 (TGFBR2, Homo sapiens, UniProt P37173): remaining activity read 78.5%.

Single results of other studies
`CC(C)n1cnc(-c2ccc(F)cc2)c1-c1ncc(C(=O)Nc2ccc(N3CCN(C)CC3)cc2)[nH]1` — result for “patients with increased reticulocyte”: 0% (human, idiopathic pulmonary fibrosis; 30 mg once daily, trial, treatment-emergent).

Repeated from above (series 3):
The remaining activity was 95.9% (STE20/SPS1-related proline-alanine-rich protein kinase (STK39, Homo sapiens, UniProt Q9UEW8)).
It gave 93.5% for remaining activity (Serine/threonine-protein kinase OSR1 (OXSR1, Homo sapiens, UniProt O95747)).
It gave 95.5% for remaining activity (Calcium/calmodulin-dependent protein kinase kinase 2 (CAMKK2, Homo sapiens, UniProt Q96RR4)).
It gave 99.4% for remaining activity (Protein kinase C beta type, isoform beta-I (PRKCB, Homo sapiens, UniProt P05771)).
For Mitogen-activated protein kinase 9 (MAPK9, Homo sapiens, UniProt P45984): remaining activity read 101%.
Mitogen-activated protein kinase kinase kinase 3 (MAP3K3, Homo sapiens, UniProt Q99759) — remaining activity: 114%.
G protein-coupled receptor kinase 3 (GRK3, Homo sapiens, UniProt P35626) — remaining activity: 82.9%.
Serine/threonine-protein kinase 10 (STK10, Homo sapiens, UniProt O94804) — remaining activity: 96.8%.
